Published values from different studies.
Protocols differ between the studies behind these lines. “And” joins repeats or separate records; there may be more than shown. ± gives the spread as reported.

SMILES	cell line	test	test system	setting	how to read	quantity	value
CC(C)c1c(CN(C)C(C)Cc2ccccc2)n(C)n(-c2ccccc2)c1=O (stereo not shown)	human iPSC-derived cardiomyocytes	MyBP-C/MYH ratio, plate-normalised SD score		concentration not given, primary screen	direction not given	activity score	4
CN(C)NC(=O)CCC(=O)O	HBL-1			0.1 µM, 120 h		viability	120%
C[C@@]1(C(=O)O)CC[C@]2(C)CC[C@]3(C)C4=CC(=O)c5c(cc(O)c(O)c5C=O)[C@]4(C)CC[C@@]3(C)[C@@H]2C1	BT-16	cell viability, MTT		10 µM, 72 h		inhibition	94.1%
CC(C)N1CCC(NC2CCN(c3cccc(-c4cc5cc(F)ccc5[nH]4)c3)CC2)CC1	U-251					GI50	1530 nM
CC(C)=CCC[C@](C)(O)[C@H]1CC[C@]2(C)[C@@H]1[C@H](O)C[C@@H]1[C@@]3(C)CC[C@H](O)C(C)(C)[C@@H]3[C@@H](O[C@@H]3O[C@H](CO)[C@@H](O)[C@H](O)[C@H]3O)C[C@]12C	HepG2	cell viability, CCK-8		50 µM	higher = more viable cells	optical density	0.315 a.u. and 0.336 a.u. and 0.368 a.u. and 0.358 a.u. and 0.308 a.u. and 0.312 a.u.
O=c1cc(-c2ccc(O)cc2)oc2cc(O)cc(O)c12	induced SH-SY5Y Aβ-GFP cells			5 µM		total neurite length	31.8 to 34 µm
Cc1cnc2ccc3c(nc(N)n3C)c2n1	BALB/c 3T3			10 µM	baseline: solvent control	relative colony forming efficiency	97 ± 4%
COc1c(C)c2c(c(O)c1C/C=C(\C)CCC(=O)O)C(=O)OC2	Granta-519	cell proliferation	blood cancer			IC50	204 nM
COC(=O)C1=CCCN(C)C1	human iPSC-derived cardiomyocytes	MyBP-C/MYH ratio, plate-normalised SD score		concentration not given, primary screen	direction not given	activity score	4
COc1cc(CCC[P+](c2ccccc2)(c2ccccc2)c2ccccc2)c(OC)c2c1OCO2.[I-]	U-251	SRB				GI50	-5.79 log M
CS(=O)(=O)c1ccc(-c2nnc(/C=C/c3nnc(-c4ccc(C#N)cc4)o3)n2-c2ccccc2Cl)nc1	Apc Q1405X mutant organoids	organoid area, live-cell imaging	mouse small intestinal organoids	6 days, Tnks1 genotype Tnks1-/-		EC50	65.8 nM
O=S(=O)(c1ccc(O)cc1)c1ccc(O)cc1	HepG2 spheroids	Hoechst flow cytometry		0.1 µM, 24 h		G2 phase cells	20.5 ± 6.92%
CC[C@H](C)[C@H](NC(=O)[C@H](C)NC(=O)[C@H](CCCCN)NC(=O)[C@H](CC(C)C)NC(=O)[C@H](C)NC(=O)[C@@H](NC(=O)[C@H](Cc1c[nH]cn1)NC(=O)[C@H](CC(C)C)NC(=O)[C@@H](NC(=O)[C@@H](NC(=O)[C@H](CCCCN)NC(=O)[C@@H](NC(=O)[C@H](C)NC(=O)[C@H](CCCCN)NC(=O)[C@H](CCCCN)NC(=O)[C@H](Cc1ccccc1)NC(=O)[C@@H](NC(=O)[C@H](CCCCN)NC(=O)[C@H](CC(C)C)NC(=O)[C@H](Cc1ccccc1)NC(=O)[C@H](CO)NC(=O)[C@H](CCCCN)NC(=O)[C@H](Cc1c[nH]c2ccccc12)NC(=O)[C@@H](N)CCCCN)[C@@H](C)O)C(C)C)[C@@H](C)O)C(C)C)[C@@H](C)O)C(=O)N[C@@H](CO)C(=O)N[C@@H](CO)C(=O)N[C@@H](CS)C(N)=O	human red blood cells			pH 7.4	baseline: Triton X-100	EC50	10000 nM
COc1c(CCC[P+](c2ccccc2)(c2ccccc2)c2ccccc2)cc2c(c1OC)OCO2.[I-]	UO-31	SRB				LC50	> -4 log M
Cn1nccc1Nc1nccc(-c2ccn([C@H](CO)c3ccc(Cl)c(F)c3)c(=O)c2)n1	HCT116	IncuCyte		concentration not given, 8 (unit not given)		PI-positive cells	2.58 count and 2.92 count and 3.25 count
CN[C@@H]1C[C@H]2O[C@@](C)([C@@H]1OC)n1c3ccccc3c3c4c(c5c6ccccc6n2c5c31)C(=O)NC4	iCell Cardiomyocytes (hiPSC-derived)	xCELLigence Cardio impedance		concentration not given, 2 h	baseline: control	beat amplitude	0%

For quick reference, copied from above:
SMILES	cell line	test	test system	setting	how to read	quantity	value
COc1c(CCC[P+](c2ccccc2)(c2ccccc2)c2ccccc2)cc2c(c1OC)OCO2.[I-]	UO-31	SRB				LC50	> -4 log M
Cn1nccc1Nc1nccc(-c2ccn([C@H](CO)c3ccc(Cl)c(F)c3)c(=O)c2)n1	HCT116	IncuCyte		concentration not given, 8 (unit not given)		PI-positive cells	2.58 count and 2.92 count and 3.25 count
